Assay results gathered from unrelated publications.
Each line is one published result; not all experiments were run side by side. “And” joins repeats or separate records; there may be more than shown. ± marks the error that the study gave. Values after ≈ are worked out from the molar mass of the structure shown.

| Compound | organism | test | test system | setting | how to read | quantity | value |
| --- | --- | --- | --- | --- | --- | --- | --- |
| CCOC(=O)C1(Cc2ccc(C#N)cc2)Oc2cc(F)ccc2N(Cc2ccc(C#N)cc2)C1=O (centres unmarked) | Eclipta prostrata | fresh weight, greenhouse postemergence | – | postemergence, 150 g ai/ha, 21 days | – | inhibition | 64.3 ± 1.91% |
| CC[C@H](C)[C@H](NC(=O)[C@H](CCCNC(=N)N)NC(=O)[C@H](CO)NC(=O)[C@H](Cc1ccc(O)cc1)NC(=O)[C@@H](NC(=O)[C@@H](NC(=O)[C@H](C)NC(=O)CNC(=O)[C@H](CCCCN)NC(=O)[C@H](CCCCN)NC(=O)CCNC(=O)CCCCCNC(=O)[C@H](CCCNC(=N)N)NC(=O)CCCCCNC(=O)[C@H](CCCNC(=N)N)NC(=O)[C@H](CCCNC(=N)N)NC(=O)CCCCCNC(=O)[C@H](CCCNC(=N)N)NC(=O)[C@H](CCCNC(=N)N)NC(=O)CCCCCNC(=O)[C@H](CCCNC(=N)N)NC(=O)[C@H](CCCNC(=N)N)NC(=O)CCCCCNC(=O)[C@@H](N)CCCNC(=N)N)C(C)C)[C@@H](C)O)C(=O)N[C@@H](CO)C(=O)NCC(=O)N[C@@H](CCC(N)=O)C(=O)N[C@@H](Cc1ccc(O)cc1)C(=O)N[C@@H](CCCCN)C(=O)O | Escherichia coli | broth microdilution | ATCC 25922, Mueller-Hinton broth | together with: LPS O55:B5 1 mg/mL | – | MIC | > 96 µM |
| C[N+]1=C2C(c3ccc([N+](=O)[O-])cc3)=[N+]([O-])c3ccccc3N2CCC1 | Parabacteroides distasonis and Bacteroides spp. | bacterial growth | – | – | – | MIC50 | 0.25 µg/mL |
| OB(O)c1ccc(C(F)(F)F)s1 | Staphylococcus aureus | OD600 | USA300 fphE::Tn transposon mutant | 50 µM | reference: wild type | growth | 59.4% and 59.3% and 64.2% and 48.8% and 108% and 57% |
| C[N+]1=C2C(c3ccccc3)=[N+]([O-])c3ccccc3N2CCC1 | Prevotella spp. | bacterial growth | – | – | – | MIC90 | 8 µg/mL |
| C#CCN1C(=O)C(CC#C)(C(=O)OCC)Oc2ccccc21 (centres unmarked) | Sclerotinia sclerotiorum | microbial growth | – | 50 µg/mL | – | inhibition | < 25% |
| [O-][N+]1=C(Cc2ccccc2)C2=NCCCN2c2ccccc21 | Parabacteroides distasonis and Bacteroides spp. | bacterial growth | – | – | – | MIC50 | 1 µg/mL (≈ 3.43 µM) |
| O=CCNCCOn1c(=O)n(OCCNCCO)c(=O)n(OCCNCCOn2c(=O)n(OCCNCCO)c(=O)n(OCCNCCO)c2=O)c1=O | Bacillus cereus | broth microdilution | – | – | – | MLC | 2 µg/mL (≈ 2.6 µM) |
| COC(=O)C1=CO[C@@H](C)[C@@H]2Cn3ccc4c5ccccc5nc-4c3C[C@H]12 | Plasmodium falciparum | growth, [3H]-hypoxanthine uptake | Dd2 | 48 h | – | IC50 | 4850 ± 2020 nM |
| COc1cc(C(SC(C)C)SC(C)C)ccc1OCCNS(=O)(=O)c1ccc(F)cc1 | Tobacco mosaic virus | protective activity | plant in vivo | – | – | EC50 | 312.4 ± 3.1 µg/mL |
| C[N+]1=C2C(c3ccc(Cl)cc3)=[N+]([O-])c3ccccc3N2CCC1 | Prevotella spp. | bacterial growth | – | – | – | MIC50 | 4 µg/mL |
| Cc1ccc(N2CC3CC(C2)N3C)cc1C(=O)NC1(c2ccc3c4c(cccc24)C(=O)N3C)CC1 | Human coronavirus NL63 | viral replication | – | 1 µM | – | inhibition | 85.5% |
| CC[C@H](C)CCCCC(=O)N[C@@H](CCN)C(=O)N[C@H](C(=O)N[C@@H](CCN)C(=O)N[C@H]1CCNC(=O)[C@H]([C@@H](C)O)NC(=O)[C@H](CCN)NC(=O)[C@H](CCN)NC(=O)[C@H](CC(C)C)NC(=O)[C@@H](CC(C)C)NC(=O)[C@H](CCN)NC1=O)[C@@H](C)O | Escherichia coli | daily serial passaging | ATCC 8739 | highest sub-MIC, 17 days | reference: initial MIC | MIC fold change | 2.16 |
| CC(C)CCCCCCCCC/C=C/C(=O)N[C@@H](CC(=O)O)C(=O)N[C@H]1CNC(=O)[C@@H]2CCCN2C(=O)[C@H](C(C)C)NC(=O)[C@@H](CN)NC(=O)CNC(=O)[C@H](CC(=O)O)NC(=O)CNC(=O)[C@H](CC(=O)O)NC(=O)[C@H](CC(=O)O)NC(=O)[C@H]2CCCCN2C1=O | Enterococcus faecium | broth microdilution | daptomycin-resistant isolate, Mueller-Hinton broth, Mg2+ 10 mg/L | 16 h, together with: Ca2+ 5 mM | – | MIC | 4 µg/mL |
| Cc1cc(C(=O)Nc2nc3cccc(C)c3n2[C@H]2CCCCN(C(=O)/C=C/CN(C)C)C2)ccn1 | Trypanosoma brucei | cell growth, Alamar Blue | 2T1 overexpressing Tb927.7.7360 | – | reference: parental 2T1 | EC50 fold shift | 0.76 fold and 1.25 fold |
| CC(C)SC(SC(C)C)c1ccc(OCCNS(=O)(=O)c2ccc(Br)cc2)c(Cl)c1 | Tobacco mosaic virus | curative activity | plant in vivo | – | – | EC50 | 102 ± 2.8 µg/mL |
| C[C@H](NC(=O)[C@@H](O)c1cc(F)cc(F)c1)C(=O)N[C@@H]1C(=O)N(C)c2ccccc2-c2ccccc21 | dengue virus type 2 | viral replication, Renilla luciferase reporter virus | Huh-7.5.1 wild-type | 48 h | – | EC50 | 5 nM |
| CC[C@H](C)[C@H](NC(=O)[C@H](CCCCN)NC(=O)[C@H](CCCCN)NC(=O)[C@H](Cc1ccccc1)NC(=O)[C@H](Cc1ccccc1)NC(=O)[C@H](CCCCN)NC(=O)[C@H](CCCCN)NC(=O)[C@H](Cc1ccccc1)NC(=O)[C@H](CCCNC(=N)N)NC(=O)[C@@H](N)CCCCN)C(=O)N[C@@H](CCCCN)C(=O)N[C@@H](CCCCN)C(=O)N[C@@H](CO)C(=O)N[C@H](C(=O)N[C@@H](CCCCN)C(=O)N[C@@H](CCCCN)C(=O)N[C@@H](CCCNC(=N)N)C(=O)N[C@H](C(=O)N[C@@H](CCCCN)C(=O)N[C@@H](CCCCN)C(=O)N[C@@H](CC(C)C)C(=O)N[C@@H](Cc1ccccc1)C(=O)N[C@@H](CCCCN)C(=O)N[C@@H](CCCCN)C(=O)N1CCC[C@H]1C(=O)N[C@@H](CCCNC(=N)N)C(=O)N[C@H](C(=O)N[C@H](C(=O)N1CCC[C@H]1C(=O)N[C@H](C(=O)N[C@@H](CO)C(=O)N[C@H](C(=O)N1CCC[C@H]1C(=O)N[C@@H](Cc1ccccc1)C(=O)O)[C@@H](C)CC)[C@@H](C)CC)[C@@H](C)CC)C(C)C)C(C)C)C(C)C | Helicobacter pylori | – | SS1 | – | – | MBC | 16 µg/mL (≈ 3.79 µM) |
| CCOC(=O)C1(Cc2ccc(C)cc2)Oc2cc(F)ccc2N(Cc2ccc(C)cc2)C1=O (centres unmarked) | Echinochloa crus-galli | fresh weight, greenhouse postemergence | – | postemergence, 150 g ai/ha, 21 days | – | inhibition | 35.7 ± 1.96% |

| Compound | organism | test | test system | setting | how to read | quantity | value |
| --- | --- | --- | --- | --- | --- | --- | --- |
| Cc1ccc(S(=O)(=O)NCCOc2ccc(C(SC(C)C)SC(C)C)cc2Cl)cc1 | Tobacco mosaic virus | inactivation activity | plant in vivo | – | – | EC50 | 1232.3 ± 0.4 µg/mL |
| COc1ccc(NC(=O)N2CCCCN3[C@H](CN(C)C)[C@H](c4ccc(C#Cc5ccccc5)cc4)[C@@H]3C2)cc1 | Toxoplasma gondii | bradyzoite growth | – | alkaline-induced bradyzoites | – | EC50 | 224 nM |
| CCCSC(SCCC)c1ccc(OCCNS(=O)(=O)c2cccc(C(F)(F)F)c2)c(OC)c1 | Tobacco mosaic virus | curative activity | plant in vivo | – | – | EC50 | 394 ± 7.5 µg/mL |
| CNCCO.O=C(O)C(Cl)Cl | Eleusine indica | – | – | 15 mg/mL, 21 days, pre-emergence, greenhouse | – | herbicidal inhibition | 0% |
| COc1cc(C(SC(C)C)SC(C)C)ccc1OCCNS(=O)(=O)c1ccc(C)cc1 | Tobacco mosaic virus | inactivation activity | plant in vivo | – | – | EC50 | 210.5 ± 1.4 µg/mL |
| C=CCN1C(=O)C(CC=C)(C(=O)OCC)Oc2cc(F)ccc21 (centres unmarked) | Echinochloa crus-galli | – | greenhouse | postemergence, 150 g ai/ha, 21 days | – | fresh weight inhibition | 48.3 ± 2.46% |
| CC(C)C[C@H](NC(=O)[C@H](Cc1ccccc1)NC(=O)[C@H](CCC(N)=O)NC(=O)[C@H](Cc1ccc(O)cc1)NC(=O)[C@H](CCCCN)NC(=O)[C@@H]1CCCN1C(=O)[C@H](CCCNC(=N)N)NC(=O)[C@H](CCC(N)=O)NC(=O)[C@H](Cc1c[nH]c2ccccc12)NC(=O)[C@H](CS)NC(=O)[C@H](Cc1c[nH]c2ccccc12)NC(=O)[C@H](Cc1ccccc1)NC(=O)[C@H](CCCNC(=N)N)NC(=O)[C@H](CCCCN)NC(=O)[C@H](CCCCN)NC(=O)[C@H](CCCCN)NC(=O)[C@@H](NC(=O)[C@@H](NC(=O)[C@H](CC(C)C)NC(=O)[C@@H](N)CO)C(C)C)[C@@H](C)O)C(=O)O | Staphylococcus haemolyticus | – | – | – | – | MBC/MIC ratio | 0.64 |
| CC(O)CN(CC(C)O)CC(C)O.O=C(O)C(Cl)Cl (centres unmarked) | Eclipta prostrata | – | – | 15 mg/mL, 21 days, post-emergence, greenhouse | – | herbicidal inhibition | -26% |
| CN(C(=O)c1ccn2ncc(-c3ccc(C(N)=O)cc3)c2c1)c1ccc(C#N)cn1 | Cryptosporidium parvum | – | UGA1 Nluc, IFN-gamma knockout C57BL/6 mice, faeces | oral, 10 mg/kg daily, 360 h post infection, treatment days 11-17 | higher means more parasites | faecal Nluc luminescence | 205 a.u. and 249 a.u. and 195 a.u. and 275 a.u. |
| CCCSC(SCCC)c1ccc(OCCNS(=O)(=O)c2ccc(F)c(Cl)c2)c(OC)c1 | Tobacco mosaic virus | curative activity | plant in vivo | – | – | EC50 | 572.1 ± 3.2 µg/mL |
| CCCCCCCCCCCCCC(=O)N[C@H]1C(=O)N[C@@H](CN)C(=O)N[C@@H](CO)C(=O)N[C@@H](Cc2ccc(O)cc2)C(=O)O[C@H]1C | Staphylococcus aureus | – | SH1000 | together with: cardiolipin, molar ratio 1 | – | MIC | > 32 µg/mL |
| COc1cc(C(SC(C)C)SC(C)C)ccc1OCCNS(=O)(=O)c1ccc(Br)cc1 | Tobacco mosaic virus | inactivation activity | plant in vivo | – | – | EC50 | 63.8 ± 1.2 µg/mL |
| [O-][N+]1=C(c2ccccc2)C2=NCCN2c2ccccc21 | Prevotella spp. | bacterial growth | – | – | – | MIC90 | ≤ 0.06 µg/mL |
| CCOC(=O)C1(Cc2ccccc2)Oc2cc(F)ccc2N(Cc2ccccc2)C1=O (centres unmarked) | Echinochloa crus-galli | – | greenhouse | postemergence, 150 g ai/ha, 21 days | – | fresh weight inhibition | 44.2 ± 2.35% |
| COc1ccc(C2=[N+]([O-])c3ccccc3N3CC(C)(C)CN=C23)cc1 | Prevotella spp. | bacterial growth | – | – | – | MIC50 | 0.25 µg/mL (≈ 0.745 µM) |
| CCOC(=O)C1(Cc2ccccc2)Oc2cc(C)ccc2N(Cc2ccccc2)C1=O (centres unmarked) | Echinochloa crus-galli | fresh weight, greenhouse postemergence | – | postemergence, 150 g ai/ha, 21 days | – | inhibition | 55.9 ± 2.32% |
| [2H]C([2H])(c1cc(F)c(F)cc1F)n1c(=O)n(Cc2ncn(C)n2)c(=O)[nH]/c1=N\c1cc2cn(C)nc2cc1Cl | canine coronavirus | viral replication, qRT-PCR | CRFK | 48 h | – | IC50 | 53400 nM |
| COc1cc(C(SC(C)C)SC(C)C)ccc1OCCNS(=O)(=O)c1ccc(Cl)cc1 | Tobacco mosaic virus | inactivation activity | plant in vivo | – | – | EC50 | 57.7 ± 1.4 µg/mL |
| CCOC(=O)C1(Cc2cccc(C(C)C)c2)Oc2cc(F)ccc2N(Cc2cccc(C(C)C)c2)C1=O (centres unmarked) | Echinochloa crus-galli | fresh weight, greenhouse postemergence | – | postemergence, 150 g ai/ha, 21 days | – | inhibition | 39.7 ± 1.96% |

Repeated from above:
| Compound | organism | test | test system | setting | how to read | quantity | value |
| --- | --- | --- | --- | --- | --- | --- | --- |
| O=CCNCCOn1c(=O)n(OCCNCCO)c(=O)n(OCCNCCOn2c(=O)n(OCCNCCO)c(=O)n(OCCNCCO)c2=O)c1=O | Bacillus cereus | broth microdilution | – | – | – | MLC | 2 µg/mL (≈ 2.6 µM) |
| COC(=O)C1=CO[C@@H](C)[C@@H]2Cn3ccc4c5ccccc5nc-4c3C[C@H]12 | Plasmodium falciparum | growth, [3H]-hypoxanthine uptake | Dd2 | 48 h | – | IC50 | 4850 ± 2020 nM |
| COc1cc(C(SC(C)C)SC(C)C)ccc1OCCNS(=O)(=O)c1ccc(F)cc1 | Tobacco mosaic virus | protective activity | plant in vivo | – | – | EC50 | 312.4 ± 3.1 µg/mL |
